Published values of several laboratories.
Numbered parts are unrelated; each lists some results of a single study.
UniProt Q15418, sequence (whole entry, looked up): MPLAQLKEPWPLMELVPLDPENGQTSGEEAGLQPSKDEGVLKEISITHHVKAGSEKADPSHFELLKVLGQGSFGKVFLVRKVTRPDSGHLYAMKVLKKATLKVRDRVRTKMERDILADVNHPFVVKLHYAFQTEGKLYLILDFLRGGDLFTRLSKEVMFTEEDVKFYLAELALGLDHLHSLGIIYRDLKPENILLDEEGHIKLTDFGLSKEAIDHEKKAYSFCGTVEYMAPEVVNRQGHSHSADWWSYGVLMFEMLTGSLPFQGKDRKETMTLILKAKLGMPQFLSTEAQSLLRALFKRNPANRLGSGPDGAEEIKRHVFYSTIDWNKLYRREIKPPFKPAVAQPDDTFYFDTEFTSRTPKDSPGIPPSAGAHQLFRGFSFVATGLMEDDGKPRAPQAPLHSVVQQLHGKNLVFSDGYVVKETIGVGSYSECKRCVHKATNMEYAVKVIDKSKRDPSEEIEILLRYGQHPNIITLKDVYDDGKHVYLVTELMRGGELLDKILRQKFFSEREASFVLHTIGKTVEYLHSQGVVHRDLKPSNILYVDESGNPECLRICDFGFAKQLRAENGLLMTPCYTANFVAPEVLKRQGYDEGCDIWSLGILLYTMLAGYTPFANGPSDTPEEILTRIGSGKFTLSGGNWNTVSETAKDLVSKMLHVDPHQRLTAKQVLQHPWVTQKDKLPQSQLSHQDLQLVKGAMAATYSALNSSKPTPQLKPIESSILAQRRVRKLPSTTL
UniProt P42684, sequence (whole entry, looked up): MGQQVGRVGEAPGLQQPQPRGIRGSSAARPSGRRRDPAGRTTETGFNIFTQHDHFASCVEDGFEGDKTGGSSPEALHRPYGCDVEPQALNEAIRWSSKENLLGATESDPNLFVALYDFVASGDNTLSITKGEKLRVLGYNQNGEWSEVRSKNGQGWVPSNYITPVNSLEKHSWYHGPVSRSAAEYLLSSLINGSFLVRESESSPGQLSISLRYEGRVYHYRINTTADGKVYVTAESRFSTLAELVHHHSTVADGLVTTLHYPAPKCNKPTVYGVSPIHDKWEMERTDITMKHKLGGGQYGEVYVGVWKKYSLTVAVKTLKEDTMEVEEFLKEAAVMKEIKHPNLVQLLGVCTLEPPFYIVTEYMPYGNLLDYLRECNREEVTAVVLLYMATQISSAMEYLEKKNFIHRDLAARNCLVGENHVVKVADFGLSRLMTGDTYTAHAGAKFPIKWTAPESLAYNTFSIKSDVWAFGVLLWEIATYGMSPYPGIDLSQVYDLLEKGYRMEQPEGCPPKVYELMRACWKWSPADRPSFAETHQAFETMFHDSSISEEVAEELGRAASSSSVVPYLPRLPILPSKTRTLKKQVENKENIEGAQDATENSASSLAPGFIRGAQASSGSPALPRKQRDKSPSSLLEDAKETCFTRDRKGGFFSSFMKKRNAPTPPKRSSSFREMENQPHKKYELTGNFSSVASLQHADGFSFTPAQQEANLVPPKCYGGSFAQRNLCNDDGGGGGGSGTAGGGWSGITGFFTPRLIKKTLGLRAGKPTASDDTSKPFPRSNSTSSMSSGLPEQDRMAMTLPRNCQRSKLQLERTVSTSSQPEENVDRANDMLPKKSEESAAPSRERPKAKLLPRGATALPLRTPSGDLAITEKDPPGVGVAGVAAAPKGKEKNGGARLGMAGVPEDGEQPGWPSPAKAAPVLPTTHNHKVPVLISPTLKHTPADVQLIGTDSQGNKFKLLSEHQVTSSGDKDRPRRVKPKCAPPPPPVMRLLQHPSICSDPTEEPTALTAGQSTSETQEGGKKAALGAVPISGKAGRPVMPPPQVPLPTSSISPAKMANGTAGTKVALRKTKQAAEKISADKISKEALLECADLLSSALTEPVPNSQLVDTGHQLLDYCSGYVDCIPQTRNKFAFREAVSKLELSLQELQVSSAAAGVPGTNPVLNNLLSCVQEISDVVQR
UniProt Q15759, sequence (whole entry, looked up): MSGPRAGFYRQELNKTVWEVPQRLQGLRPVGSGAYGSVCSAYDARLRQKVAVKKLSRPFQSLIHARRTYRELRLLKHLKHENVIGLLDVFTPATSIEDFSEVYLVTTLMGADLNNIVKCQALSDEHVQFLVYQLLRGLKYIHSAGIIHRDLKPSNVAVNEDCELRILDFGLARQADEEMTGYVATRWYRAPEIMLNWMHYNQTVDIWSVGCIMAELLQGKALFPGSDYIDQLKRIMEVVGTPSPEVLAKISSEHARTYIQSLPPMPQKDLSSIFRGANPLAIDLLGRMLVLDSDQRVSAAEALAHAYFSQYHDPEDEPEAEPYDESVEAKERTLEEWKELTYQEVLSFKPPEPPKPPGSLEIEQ

Sample 1
Target: Serine/threonine-protein kinase D1 (PRKD1, Homo sapiens, UniProt Q15139)
UniProt Q15139, sequence (whole entry, looked up): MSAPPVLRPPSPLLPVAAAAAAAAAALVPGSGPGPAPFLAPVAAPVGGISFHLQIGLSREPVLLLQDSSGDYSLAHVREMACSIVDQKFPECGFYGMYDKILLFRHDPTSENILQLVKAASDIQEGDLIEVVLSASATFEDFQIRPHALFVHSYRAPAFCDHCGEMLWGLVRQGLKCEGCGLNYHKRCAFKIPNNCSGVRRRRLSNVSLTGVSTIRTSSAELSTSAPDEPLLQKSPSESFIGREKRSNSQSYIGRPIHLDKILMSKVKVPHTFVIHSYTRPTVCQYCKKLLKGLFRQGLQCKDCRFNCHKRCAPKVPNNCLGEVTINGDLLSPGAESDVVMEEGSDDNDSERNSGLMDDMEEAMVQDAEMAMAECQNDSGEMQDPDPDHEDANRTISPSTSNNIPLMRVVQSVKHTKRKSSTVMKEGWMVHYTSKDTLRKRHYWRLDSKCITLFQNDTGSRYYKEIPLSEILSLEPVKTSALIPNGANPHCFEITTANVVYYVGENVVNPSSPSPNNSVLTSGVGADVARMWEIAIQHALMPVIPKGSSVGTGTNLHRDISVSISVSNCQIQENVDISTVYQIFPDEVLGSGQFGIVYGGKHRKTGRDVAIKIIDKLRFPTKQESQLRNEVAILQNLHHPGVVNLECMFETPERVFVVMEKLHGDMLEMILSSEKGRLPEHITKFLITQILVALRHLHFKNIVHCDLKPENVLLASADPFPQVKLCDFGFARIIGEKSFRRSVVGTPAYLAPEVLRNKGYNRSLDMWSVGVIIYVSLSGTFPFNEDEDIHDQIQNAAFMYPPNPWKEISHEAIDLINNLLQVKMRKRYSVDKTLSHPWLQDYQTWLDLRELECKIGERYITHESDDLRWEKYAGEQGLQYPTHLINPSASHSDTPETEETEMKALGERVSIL
Read-out: enzyme activity
Mode: inhibitor
Tested at: 0.5 µM
Reference: control
`O=C1Cc2c([nH]c3ccc(Br)cc23)-c2ccccc2N1` has a remaining activity of 101%.
For `O=C(c1ccccc1)c1ccc(N2CCOCC2)cc1O`, the remaining activity was 102%.
The remaining activity of `FC(F)(F)c1ccc(/C=C/c2nc(COc3ccc(CCCCn4ccnn4)cc3)co2)cc1` is reported as 93.2%.
The remaining activity of `NC(=O)c1cccc(-c2cc(Nc3ccc(OC(F)(F)F)cc3)ncn2)c1` is reported as 99.5%.
`NC(=O)c1ccc(-c2nc(-c3ccc4c(c3)OCCO4)c(-c3ccccn3)[nH]2)cc1` has a remaining activity of 96.3%.
`c1ccc(-c2n[nH]c3c2oc2ccccc23)cc1` has a remaining activity of 79.2%.
With `N#C/C(=C(/N)SC1C=CC=CC1)c1cccc(C(O)c2ccncc2)c1` (stereo not shown) the remaining activity was 98.5%.
`c1ccc2c(-c3ccncc3)c[nH]c2c1` gave a remaining activity of 95.5%.
For `O=C1Nc2ccc(Br)cc2/C1=C/c1cc2c([nH]1)CCCC2`, the remaining activity was 93.8%.
`CCCNC(=O)Nc1ccc(Oc2ncnc3cc(OC)c(OC)cc23)cc1Cl` has a remaining activity of 92.9%.
For `COc1cc2c(Nc3ccc(Br)cc3F)ncnc2cc1OCC1CCN(C)CC1`, the remaining activity was 99.3%.
`O=C1Nc2ccccc2/C1=C\c1c(Cl)[nH]c2ccccc12` has a remaining activity of 89.5%.
The remaining activity of `N#Cc1cnc2cnc(NCc3cccnc3)cc2c1Nc1ccc(F)c(Cl)c1` is reported as 94.5%.
For `CCN(CC)CCCCN1c2ccccc2Oc2ccc(Cl)cc21`, the remaining activity was 101%.
`O=C1NC(=O)c2c1c1c3ccccc3[nH]c1n1cncc21` gave a remaining activity of 61.4%.
`CC(C)N(CCC(=O)c1ccc2ccccc2c1)Cc1ccccc1` has a remaining activity of 98%.
The remaining activity of `O=Nc1c(-c2c(O)[nH]c3ccccc23)[nH]c2ccccc12` is reported as 85%.

Sample 2
Target: Histone acetyltransferase KAT6A, winged helix 1, GST fusion (KAT6A, Homo sapiens, UniProt Q92794, residues 1-85)
Technique: protein binding microarray
Molecule type: double-stranded DNA, one strand shown
Medium: in vitro
Tested at: not given
Setting: 8-mer, flanks averaged, mean of 2 arrays, mostly near background
Reference: not given
Direction: higher = stronger binding
Residues (chain): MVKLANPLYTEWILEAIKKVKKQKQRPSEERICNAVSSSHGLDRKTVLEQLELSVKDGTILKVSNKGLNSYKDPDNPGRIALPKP
The E-score of `ACGAGCTC` is reported as -0.255.
For `ATGGGAGG`, the E-score was -0.131.
`CTTTTTTA` gave an E-score of -0.093.
The E-score of `TCGCTTCA` is reported as -0.00377.
With `GCTCAACC` the E-score was -0.103.
With `CCCGCGAA` the E-score was 0.277.
`CAAGCCAC` has an E-score of -0.159.
`GGGCATTA` gave an E-score of -0.00931.

Sample 3
Target: Prothrombin, mature alpha-thrombin (F2, Homo sapiens, UniProt P00734)
Technique: aptamer microarray, sandwich
Molecule type: DNA with 2'F-ANA
Medium: in vitro
Tested at: 200 nM
Setting: whole 15-mer aptamer, many near background
With: Cy3 exosite-II aptamer, 400 nM
Direction: higher = stronger binding
Oligonucleotide: GGTTGGTGTGGTTGG
`2'F-ANA at 2 4 5 6 8 9 10 11 14 15`: “mean fluorescence intensity” 77.9 a.u.
For `2'F-ANA at 2 5 6 7 9 10 11 12`, “mean fluorescence intensity” read 55.2 a.u.
Under “mean fluorescence intensity”, `2'F-ANA at 2 3 4 6 7 8 10` is recorded as 210 a.u.
`2'F-ANA at 1 6 7 8 15`: “mean fluorescence intensity” 231 a.u.
`2'F-ANA at 2 4 6 7 9 15` — result for “mean fluorescence intensity”: 261 a.u.
Under “mean fluorescence intensity”, `2'F-ANA at 2 6 7 8 10 11 12` is recorded as 164 a.u.
For `2'F-ANA at 7 8 10 12`, “mean fluorescence intensity” read 279 a.u.
For `2'F-ANA at 4 6 9 10 11 12 14 15`, “mean fluorescence intensity” read 60.8 a.u.

Sample 4
SMILES: CS(=O)(=O)N1CCCC(NC(=O)[C@H](CCC2CCCCC2)NC(=O)c2ccc(CNc3ncnc4c3nnn4-c3ccccc3)cc2)C1 (stereo partly shown)
Read-out: cell-free assay
Technique: competition with immobilised ligand
Tested at: 0.1 µM
The remaining binding was 100% (Ribosomal protein S6 kinase alpha-1, C-terminal kinase domain (RPS6KA1, Homo sapiens, UniProt Q15418)).
The remaining binding was 100% (Mitogen-activated protein kinase 11 (MAPK11, Homo sapiens, UniProt Q15759)).
For Tyrosine-protein kinase ABL2 (ABL2, Homo sapiens, UniProt P42684): remaining binding read 100%.
For Receptor-type tyrosine-protein kinase FLT3, autoinhibited (FLT3, Homo sapiens, UniProt P36888): remaining binding read 97%.

Repeated from above (sample 1):
The remaining activity of `NC(=O)c1cccc(-c2cc(Nc3ccc(OC(F)(F)F)cc3)ncn2)c1` is reported as 99.5%.
`NC(=O)c1ccc(-c2nc(-c3ccc4c(c3)OCCO4)c(-c3ccccn3)[nH]2)cc1` has a remaining activity of 96.3%.
`c1ccc(-c2n[nH]c3c2oc2ccccc23)cc1` has a remaining activity of 79.2%.
With `N#C/C(=C(/N)SC1C=CC=CC1)c1cccc(C(O)c2ccncc2)c1` (stereo not shown) the remaining activity was 98.5%.
`c1ccc2c(-c3ccncc3)c[nH]c2c1` gave a remaining activity of 95.5%.
